Results from different studies.
Parts stem from different laboratories: compare values within a part only.

Set 1
Target: Sal-like protein 4, full length isoform A (SALL4, Homo sapiens, UniProt Q9UJQ4, residues 1-1053)
UniProt Q9UJQ4, sequence (whole entry, looked up): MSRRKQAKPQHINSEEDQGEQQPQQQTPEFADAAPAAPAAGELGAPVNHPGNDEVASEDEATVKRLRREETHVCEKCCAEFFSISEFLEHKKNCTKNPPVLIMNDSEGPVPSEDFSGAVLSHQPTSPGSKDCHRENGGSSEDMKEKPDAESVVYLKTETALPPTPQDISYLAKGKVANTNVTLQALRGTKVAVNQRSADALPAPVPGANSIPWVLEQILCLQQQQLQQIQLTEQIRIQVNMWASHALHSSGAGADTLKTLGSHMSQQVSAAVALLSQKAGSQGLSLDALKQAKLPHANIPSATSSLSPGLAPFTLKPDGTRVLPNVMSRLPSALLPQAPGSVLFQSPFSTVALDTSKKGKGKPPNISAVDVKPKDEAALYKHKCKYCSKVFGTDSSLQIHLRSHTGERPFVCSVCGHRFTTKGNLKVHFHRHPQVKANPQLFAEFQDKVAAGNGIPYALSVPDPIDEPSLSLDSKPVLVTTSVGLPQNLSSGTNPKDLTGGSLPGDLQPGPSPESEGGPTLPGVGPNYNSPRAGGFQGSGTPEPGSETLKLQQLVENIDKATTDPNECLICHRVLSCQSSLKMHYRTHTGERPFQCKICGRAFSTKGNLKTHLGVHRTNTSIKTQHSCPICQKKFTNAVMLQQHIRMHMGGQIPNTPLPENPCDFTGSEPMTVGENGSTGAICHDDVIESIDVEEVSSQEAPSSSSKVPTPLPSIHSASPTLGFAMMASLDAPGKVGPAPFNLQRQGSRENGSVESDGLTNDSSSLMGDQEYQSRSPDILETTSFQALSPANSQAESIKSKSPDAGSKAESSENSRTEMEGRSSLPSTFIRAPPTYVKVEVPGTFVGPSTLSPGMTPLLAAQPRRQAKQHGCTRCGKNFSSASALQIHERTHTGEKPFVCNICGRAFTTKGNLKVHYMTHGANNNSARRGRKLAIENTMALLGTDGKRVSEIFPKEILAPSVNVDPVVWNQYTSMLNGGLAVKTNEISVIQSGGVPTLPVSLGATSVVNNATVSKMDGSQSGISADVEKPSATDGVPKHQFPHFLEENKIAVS
Method: universal PBM
Form: double-stranded DNA, one strand shown
Matrix: in vitro
Concentration: 600 nM
Notes: 8-mer, flanks averaged, mean of replicates
Reading: higher = stronger binding
| Sequence | E-score |
| --- | --- |
| GCGCGGAA | -0.297 |
| CCATGCCG | -0.177 |
| GCCTGAAC | -0.236 |
| AGGGGTGA | -0.25 |
| GAGGTTTA | 0.0827 |
| AGCGGCCA | -0.327 |
| CATTACAA | 0.29 |
| CACCTGAG | -0.0773 |
| AATCATAC | 0.233 |
| GCCACTAC | -0.235 |
| CTAACCTC | -0.0339 |
| GCCTATGA | 0.0761 |
| CCGCCACG | -0.174 |
| GGACCGTA | -0.199 |
| AACTAGTA | 0.212 |
| ACTCGGAC | -0.0824 |
| ACCAGATA | 0.252 |
| AATTTTAT | 0.362 |
| CCTCCGAC | -0.266 |
| AAGCGTCA | 0.0102 |
| GCCCGAGA | -0.209 |
| CGTTTATA | 0.317 |
| AGATGAGC | 0.064 |
| GCGATCGA | -0.124 |

Set 2
Target: Histone acetyltransferase KAT6A, winged helix 2, GST fusion (KAT6A, Homo sapiens, UniProt Q92794, residues 85-181)
Method: protein binding microarray
Form: double-stranded DNA, one strand shown
Matrix: in vitro
Concentration: not given
Notes: 8-mer, flanks averaged, mean of 2 arrays, mostly near background
Baseline: not given
Reading: higher = stronger binding
Construct (chain): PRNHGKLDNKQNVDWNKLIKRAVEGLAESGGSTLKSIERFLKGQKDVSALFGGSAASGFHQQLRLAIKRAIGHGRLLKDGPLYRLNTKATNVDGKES
| Sequence | E-score |
| --- | --- |
| GACTGATC | -0.056 |
| ATCAGACG | -0.12 |
| CGCTAACC | 0.102 |
| TCGGAACA | 0.0142 |
| CTTGCGGC | 0.15 |
| CCAATTTA | 0.0655 |
| CAACCTTC | 0.0201 |
| CAGGACAC | 0.0541 |
| CACAGCGA | 0.187 |
| AGAAGCCA | 0.096 |
| GGGATAGA | -0.0941 |
| ATAATGCG | -0.106 |
| ATATAGCC | 0.0271 |
| GGCCTTTA | -0.0815 |
| AAACAAGC | -0.00364 |
| ACAAAAGT | 0.00609 |
| CCATGGAA | -0.0797 |
| AGCTGGCC | -0.00707 |
| AGGCGGAC | 0.255 |
| AGTTACGG | -0.0209 |

Set 3
Target: RNA binding protein fox-1 homolog 2, RRM domain, GST-SBP tag (RBFOX2, Homo sapiens, UniProt O43251-10, residues 100-194)
Method: RNA Bind-n-Seq
Form: RNA
Matrix: in vitro
Concentration: 365 nM
Notes: natural RNA segment, single round, ends assumed
Baseline: no-protein control
Reading: higher = stronger binding
Shared flanks, not repeated: GGGAGUUCUACAGUCCGACGAUC … UGGAAUUCUCGGGUGCCAA
Residues (chain): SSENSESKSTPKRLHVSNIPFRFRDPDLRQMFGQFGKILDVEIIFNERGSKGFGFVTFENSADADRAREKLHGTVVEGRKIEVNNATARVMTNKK
| Sequence | RBNS enrichment (R) |
| --- | --- |
| GGCUUCUCGGGAGGCCAGCCUCUACCAUGGCCGCCUGUUUUGCCUCAGACCAAACUAAGUGCUUCCAGAUCCUUUCGGUGCAAUUUCAGAGCUGUGCCAGAUGCUAGACA | 0.414 |
| UGGUUCCUUUAACUCUUCACCAAGUCCUCUAGCUGUAUUUCUGAAGGCUCUCACACUUCUUCUGUGAAGCGUGGGCUUCAUUUCCAUGGCCCUGAGGCCCAGAGAGACAG | 0.316 |
| GUACAGUUUAACGGGGAUAGAGGGGGAAUAAUGUCCAUACCAUUGUGUGUGGAGGAUUUACAGCUAAGCUGUAGUUGCAGAGUACAUGUACAGUAAUGAAGUUCACUGUG | 0.791 |
| UAGUGCCUGGAUCAAUGAGAUGGACACUAAUGCUGCUUCUUUAUAAUAAUAGUACCUAAGAGUAUUGAUGGUUUUCAUUUUUCAACCAGCACUCUAAUGCACAGCUGCUG | 0.341 |
| GAUGUGUUUACAGGUCCCUGUAAGCAGUGUUAGGUCCAUAGGCUUUUAUGACUCCAGUCUGCAAGCAGUGUUAGGUUGACCUCAUAGGCUUUUAUGAUUCCAGUCUGCUG | 0.525 |
| AUAACCAGUUCCAUCAUCCUGGUGGAACUUGAACAUUUAGAGUUUAUCUAGAGAGCUUGGUUAAUCUUUCCAUAUUAUUUGUAGUAUUGGUCACAAAUGCUGUUCCCUCU | 0.252 |
| GUUUUAUAGUUCUUAAUCUAAACAUUUUAUAUUUCCUUCUUUUGGAAAAAACCUACAUGCUACAAGCCACCAUAUGCACAGACUAUACAGUGAGUUGAGUUGGCUCUCCC | 0.462 |
| UGGCAUUGAUGCUAAUAAAUCCUUUGCACAAAAAUUUGAAUAAACUUCCAGUGGUUUCGAUAACGUACAAGAUUGUAUAUUUCCCUCAUUUAUUGUAAUUCAAUAUCUUA | 0.461 |
| AGGACAAGGGCAGCCCCACCCCAUCCAGCCUGGGCUCCCCGCAGACCCUUGCUGCUCCCGUGGCCUGGACACGCUGGGGAGCUUCUCACACCUACCCCUACCGUCCAGCC | 0.277 |
| UGAUCUCUUAGAAGCCAUGGGACCUCCUCCCUCAUUCAUCUUGCAAGCAAAUCCCAUUUCUUGAAAAGCCUUGGAGAACUCGGUUUGGUAGACUUGGACAUCUCUCUGGC | 0.798 |
| GAUUAUUUGAUAAUUGGUUAGAUCAUACUUGUAAAUUUUAAUGCUUUGUGUAAUUGGUUUGAAAAACAGUGAAAUGGGUAAACGCAAAACUUUUGUACUUUAUUACGAGU | 0.852 |
| AGGGAUUCCGAUAUGUCAGGACCUAAAUGGCCUAAGCACCUGUCAAAUUAAAAUUCCAAAAUUCAUUGAAAUCCUAAAGCCUUGAUAUUAUAUUCUUUAUAAGGCGUGUG | 0.408 |

Set 4
Target: Prothrombin, mature alpha-thrombin (F2, Homo sapiens, UniProt P00734)
Method: aptamer microarray, sandwich
Form: DNA with 2'F-ANA
Matrix: in vitro
Concentration: 200 nM
Notes: whole 15-mer aptamer, many near background
With: Cy3 exosite-II aptamer, 400 nM
Reading: higher = stronger binding
Sequence: GGTTGGTGTGGTTGG
| Modification | mean fluorescence intensity [a.u.] |
| --- | --- |
| 2'F-ANA at 2 4 5 6 7 8 14 15 | 46.9 |
| 2'F-ANA at 2 4 5 6 7 8 10 11 13 14 | 58.6 |
| 2'F-ANA at 3 4 8 14 15 | 381 |
| 2'F-ANA at 2 7 12 14 | 256 |
| 2'F-ANA at 2 4 7 8 13 15 | 261 |
| 2'F-ANA at 4 5 6 8 9 11 12 13 14 15 | 47.4 |
| 2'F-ANA at 1 3 4 7 9 10 12 14 15 | 57.8 |
| 2'F-ANA at 1 2 5 7 9 10 13 14 | 46.2 |
| 2'F-ANA at 1 4 8 11 14 15 | 177 |
| 2'F-ANA at 2 4 6 7 8 9 10 13 15 | 65.6 |
| 2'F-ANA at 3 4 6 7 9 10 14 | 169 |
| 2'F-ANA at 2 3 5 6 7 8 9 11 12 13 14 15 | 55.9 |
| 2'F-ANA at 3 4 7 9 10 12 13 | 306 |
| 2'F-ANA at 1 2 3 5 7 9 10 12 14 | 47.2 |
| 2'F-ANA at 5 6 8 10 14 15 | 53 |
| 2'F-ANA at 2 6 9 11 12 14 | 152 |

Set 5
Target: Ras GTPase-activating protein-binding protein 1, full length (G3BP1, Homo sapiens, UniProt Q13283)
UniProt Q13283, sequence (whole entry, looked up): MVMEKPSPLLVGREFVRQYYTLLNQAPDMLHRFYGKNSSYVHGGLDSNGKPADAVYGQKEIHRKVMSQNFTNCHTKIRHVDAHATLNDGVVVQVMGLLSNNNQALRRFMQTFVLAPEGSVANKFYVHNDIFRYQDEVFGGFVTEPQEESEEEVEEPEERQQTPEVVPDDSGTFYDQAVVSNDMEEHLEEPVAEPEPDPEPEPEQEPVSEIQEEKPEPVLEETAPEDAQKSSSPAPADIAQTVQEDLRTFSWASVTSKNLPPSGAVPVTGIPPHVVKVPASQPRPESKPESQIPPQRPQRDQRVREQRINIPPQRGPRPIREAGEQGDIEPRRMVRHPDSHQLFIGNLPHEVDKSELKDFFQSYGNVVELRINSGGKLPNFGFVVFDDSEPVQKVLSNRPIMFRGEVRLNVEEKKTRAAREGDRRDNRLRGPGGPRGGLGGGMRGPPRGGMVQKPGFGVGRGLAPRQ
Method: RNA Bind-n-Seq
Form: RNA
Matrix: in vitro
Concentration: 200 nM
Notes: whole 134-nt RNA, ends assumed
With: 150 mM LiCl
Baseline: input library
Reading: higher = stronger binding
All molecules: 7-deaza-guanosine replaces G
Shared flanks, not repeated: GGGAGUUCUACAGUCCGACGAUC … UGGAAUUCUCGGGUGUCAAGG
| Sequence | log2 enrichment |
| --- | --- |
| GUCCUGUGCUACACAUCGUAUGUACCGAAUCGGGGAGGGGUUUUUUUGGGGAAAGGGGAAAGUAUUAUGUUACGCCGUUCGGAUCUGCAC | 0.657 |
| UGUGCUACACAUCGUAUGUACCGAAUCGGGGUUUUUUUGGGGUUUUUUUGGGGAAAAAGGGGAAAGUAUUAUGUUACGCCGUUCGGAUCU | 0.838 |
| UCCUGUGCUACACAUCGUAUGUACCGAAUCGGGGUUUUUUUGGGGUUUGGGGUUUGGGGAAAGUAUUAUGUUACGCCGUUCGGAUCUGCA | 0.181 |
| UGGCCCUGGUGGCAUGCUGGGAGGAAGAGGUGGCCUCAUGGAUCGUGGUGGUCCCGGUGGAAUGUUCAGAGGUGGCCGUGGUGGAGACAG | 0.295 |
| UUAUUGAACUGACAAGGUCCUCCCUGUGUUGUAGCAAGGACCAGACUGGCUUGAGCUCUCUGAGAUGACCGAGCAGCCAGACUAUGACCU | -0.0129 |
| AGUCCUGUGCUACACAUCGUAUGUACCGAAUCGGGGCCCCGGCCCCGGGGCCCCGGGGAAAGUAUUAUGUUACGCCGUUCGGAUCUGCAC | -1.24 |
| AGUCCUGUGCUACACAUCGUAUGUACCGAAUCGGCCCCGGGGCCCCGGGGCCCCGGGGAAAGUAUUAUGUUACGCCGUUCGGAUCUGCAC | -0.0633 |
| GUCCUGUGCUACACAUCGUAUGUACCGAAUCAAACCCCCAAAUUUUUAAAUUUUUAAAAAAGUAUUAUGUUACGCCGUUCGGAUCUGCAC | 0.688 |
| UCCUGUGCUACACAUCGUAUGUACCGAAUCAAACCCAAAUUUUUUUAAACCCCCCCAAAAAAGUAUUAUGUUACGCCGUUCGGAUCUGCA | 1.44 |
| CAAGUCCUGUGCUACACAUCGUAUGUACCGAAUCGGGGAGGGGUGGGGAAAGGGGAAAGUAUUAUGUUACGCCGUUCGGAUCUGCACUUC | 0.122 |
| UUAUAAUUGAUGAUCAUCCUGAAGUAACAGUAAUUGAAGAUCCCCAGUCAAAUUUGAAUGAUGAUGGUUUUACUGAAGUGGUAUCCAAAA | -2.03 |
